Published values gathered from unrelated publications.
Numbered parts are unrelated; each lists some results of a single study. Positions count from the first letter of the parent shown.

Series 1 — technique: protein-binding microarray; form: double-stranded DNA, one strand shown; matrix: in vitro; tested at: 2200 nM top; notes: 60-bp whole probe; with: salmon DNA 0.4 mg/ml; baseline: random background probes; reading: higher = stronger binding; all sequences stand within: GCCTAGCAC … GTCTTGATTCGCTTGACGCTGCTG
Target: Interferon regulatory factor 7, full length, phosphomimetic (IRF7, Homo sapiens, UniProt Q92985, residues 1-503, S471D/S472D/S475D/S476D/S477D/S483D/S484D/S487D)
Residues (chain): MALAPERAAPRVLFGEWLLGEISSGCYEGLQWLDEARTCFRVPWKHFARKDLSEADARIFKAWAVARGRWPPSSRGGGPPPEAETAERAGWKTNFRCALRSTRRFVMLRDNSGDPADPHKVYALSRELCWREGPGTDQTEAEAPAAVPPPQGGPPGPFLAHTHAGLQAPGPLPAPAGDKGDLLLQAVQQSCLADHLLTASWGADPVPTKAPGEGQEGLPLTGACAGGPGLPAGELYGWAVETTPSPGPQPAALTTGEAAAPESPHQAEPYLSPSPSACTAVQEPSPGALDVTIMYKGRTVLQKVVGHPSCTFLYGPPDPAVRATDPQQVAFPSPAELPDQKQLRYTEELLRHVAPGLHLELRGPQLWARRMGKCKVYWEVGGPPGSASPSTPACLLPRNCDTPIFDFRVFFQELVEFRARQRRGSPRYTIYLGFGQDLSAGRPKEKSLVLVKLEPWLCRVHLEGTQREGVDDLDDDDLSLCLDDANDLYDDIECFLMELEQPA
Strand	fitted relative affinity
TTAGTACTGGACTTTCGGTTAGTGCTA	5.51 z-score
GACGGTATCGGTATCCGGACGTGCTAG	0.626 z-score
GACGATATCAGATTCGAGACGTGCTAG	0.763 z-score
TTAGGTATTGACTATCGGTTAGTGCTA	0.103 z-score
CCACATCTCTGTCCGTGCTCGTGCTAG	1.86 z-score
GACGAACTGAGACTGGAGGCGTGCTAG	-0.428 z-score
CTGTTTTTCCCCTGCACTCAGTGCTAG	2.79 z-score
GAAGGTATCGACTTTCGGGACGTGCTA	2.95 z-score
AACGGTCTCCTTTTCCTGACGTGCTAG	1.45 z-score
TTAGCTTTCGGGTTTCGATTAGTGCTA	10.3 z-score
GACGTTCTCGGTTTCGGGACGTGCTAG	4.48 z-score
CCATCTCTCAAAAGTCACCCTGTGCTA	0.763 z-score
TTAGGACTGGACTATCGGGTAGTGCTA	-0.585 z-score

Series 2 — technique: DHFR PCA, deep sequencing; matrix: yeast; with: (+)-ABA 0.39 µM; baseline: wild-type fitted maximum; reading: higher = stronger binding
Target: ABI1, truncated, D143A, DHFR fusion (Arabidopsis thaliana)
Notes: methotrexate growth selection, single substitutions
Parent: PYL1, truncated, DHFR fusion (Arabidopsis thaliana); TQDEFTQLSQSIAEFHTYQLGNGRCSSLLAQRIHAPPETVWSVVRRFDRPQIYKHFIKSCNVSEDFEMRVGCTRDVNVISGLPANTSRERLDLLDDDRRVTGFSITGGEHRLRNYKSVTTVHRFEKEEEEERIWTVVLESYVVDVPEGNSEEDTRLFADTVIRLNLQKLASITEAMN; partner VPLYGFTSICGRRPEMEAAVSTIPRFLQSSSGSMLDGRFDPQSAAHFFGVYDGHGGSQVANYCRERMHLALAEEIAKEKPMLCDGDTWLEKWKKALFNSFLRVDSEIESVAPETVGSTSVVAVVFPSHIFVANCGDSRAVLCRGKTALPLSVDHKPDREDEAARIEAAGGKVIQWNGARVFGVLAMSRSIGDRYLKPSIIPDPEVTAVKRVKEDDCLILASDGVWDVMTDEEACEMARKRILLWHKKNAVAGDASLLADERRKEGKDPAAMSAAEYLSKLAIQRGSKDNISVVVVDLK
Substitution	relative binding score
S11V	52.6%
A170L	-20.9%
R155M	19.6%
T135K	-2.53%
N77I	51.1%
N61E	62%
G23P	3.94%
Q19A	39.1%
T6D	53%
A30G	17%
E125T	45.3%
N22Y	35%
N22L	35.6%
I133H	47.4%

Series 3 — technique: RNA Bind-n-Seq; form: RNA; matrix: in vitro; tested at: not given; baseline: input RNA pool; reading: higher = stronger binding
Target: RING finger protein unkempt homolog, zinc fingers 1-6, GST-SBP tag (UNK, Homo sapiens, UniProt Q9C0B0, residues 30-357)
Sequence of UniProt Q9C0B0 (30-357, looked up): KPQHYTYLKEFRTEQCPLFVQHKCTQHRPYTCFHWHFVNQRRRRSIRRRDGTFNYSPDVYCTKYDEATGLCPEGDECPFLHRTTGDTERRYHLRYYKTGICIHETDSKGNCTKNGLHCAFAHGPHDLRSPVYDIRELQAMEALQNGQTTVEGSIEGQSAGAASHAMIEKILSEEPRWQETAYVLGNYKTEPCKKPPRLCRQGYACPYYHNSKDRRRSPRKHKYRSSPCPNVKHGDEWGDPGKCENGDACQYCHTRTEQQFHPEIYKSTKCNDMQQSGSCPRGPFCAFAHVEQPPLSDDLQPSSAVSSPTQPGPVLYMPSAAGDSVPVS
Notes: RNA with constant flanks, human and mouse sites, ends assumed
Strand	bound/input enrichment [ratio]
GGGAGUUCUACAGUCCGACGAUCAACAGGAUCAGUUAAUUAUUCCAUUUAUACCUACUGUAGGCUUUUUAUUCAACAGUUAUCUGUAGCUUAAGUACAUGAUAGGCAAAAACAAAGAGAAAAGAAAUGUUUUUGUAGUAGUGGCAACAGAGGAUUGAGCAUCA	2.45
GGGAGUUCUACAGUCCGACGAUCAUCAGAGACCAUGUAGUUCAACUUUCCACUCAAAGUAAGAUUUAUGAAUUAUUUAAAUGAUAGUUGUUACUUGGAACAGCCACUUGAGAGGCUCUCUUGGUAUUGUUUGGAAUUGUUUUACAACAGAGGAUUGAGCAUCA	1.15
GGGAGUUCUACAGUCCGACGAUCUUGCGCCAGAGAACAGAAAACAUAGAUAUAAAAAAAUACUGUGUACAUUAUCUUGAGGAUGUAGGUUCUUUUGAAUACACUCGUAAUACCCUUAAAGAGCUUGAAGCUAAAGCCUAUAAACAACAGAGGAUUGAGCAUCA	1.31
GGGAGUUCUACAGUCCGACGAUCUCUUGAAACCUAAACUCUGUGCUUGUAGAAGACUGUAACCUUUUUGUCUUUUUUUUUUUUUUUUUAAACAAACAAAAAAACCAACCUCCAGCUCCAGUGGCUGUGACUGGCCCCAGUGAUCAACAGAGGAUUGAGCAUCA	0.58
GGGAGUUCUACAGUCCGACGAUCAAGACUGAAUUAAGUGAAAUUGUACUUUAUUUUACAUAUAUAAUGUCAUGUACAACUUGGCUUAGAUAGUGUUUUUGGGGGGGAUUUUUGUUUUGGUGUUUAUUUUUACACAAGGAAAGUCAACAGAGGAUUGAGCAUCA	1.03
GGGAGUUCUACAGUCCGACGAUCGUUCUUAAAUAUGCAGGACUGAAAAAAGAAGACAUUGCCAUGUGGGAAGUAAAUGAAGCAUUCAGUGUGGUUGUGCUAGCCAACAUUAAAAUGCUGGAGAUUGACCCCCAAAAAGUAAAUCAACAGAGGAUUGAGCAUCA	0.225
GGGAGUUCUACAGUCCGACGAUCAAUGUUCAUAUUUUGAGUAAAGGAAGCUAAAACCAUGUUUGCUUUCUGGUACUACAUGCAUUAGCGAAAGGUUAAGUAAGUUUUGUUCUCCACUGAAGUAAUACUUAACAUCUCAGAAAACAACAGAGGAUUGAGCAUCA	0.186
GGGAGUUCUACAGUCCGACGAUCAAAACGCCAAUUCGCAACAGAGCCUUUUACAUGGAAGAAGGGGCCCCCUACUGCGAGCGAGACUAUGAGAAGAUGUUUGGCACAAAAUGUCGAGGCUGUGACUUCAAGAUUGAUGCUGGACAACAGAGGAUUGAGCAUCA	0.13

Series 4 — technique: protein binding microarray; form: double-stranded DNA, one strand shown; matrix: in vitro; tested at: not given; baseline: not given; reading: higher = stronger binding
Target: Histone acetyltransferase KAT6A, both winged helices, GST fusion (KAT6A, Homo sapiens, UniProt Q92794, residues 1-181)
Notes: 8-mer, flanks averaged, mean of 2 arrays, mostly near background
Construct (chain): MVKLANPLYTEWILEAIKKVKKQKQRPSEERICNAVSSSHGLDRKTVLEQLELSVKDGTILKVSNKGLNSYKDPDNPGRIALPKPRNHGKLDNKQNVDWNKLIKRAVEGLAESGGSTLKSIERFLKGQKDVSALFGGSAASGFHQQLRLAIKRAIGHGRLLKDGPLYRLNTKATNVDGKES
Strand	E-score
GCTCTATA	0.00754
CGGAGGAG	-0.0689
CTTTGCTC	-0.079
CGAAAGTC	0.0957
TCCCCAGA	-0.289
AAAGTCAT	-0.194
GCGGCCGA	0.334
ATTCATTA	0.0512
ACTTAGAC	-0.0932
GAGACCAC	-0.18
CACAACAG	-0.0644
CGACGTAC	0.0194
CTCACGTC	-0.0895
AAACTAGA	-0.0201
GGATCCTA	0.0273
ACTATGAA	-0.0662
CTGCTAAG	-0.251
ACTCGAGT	-0.0747
ATTGCGTG	0.125
ATCTCTAG	-0.137
GCCATCGA	0.089
ATAAGCAG	-0.208
GAGTTGGC	-0.162
AACCTCAT	-0.122

For quick reference, copied from above (series 3):
Strand	bound/input enrichment [ratio]
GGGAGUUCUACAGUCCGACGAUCAAGACUGAAUUAAGUGAAAUUGUACUUUAUUUUACAUAUAUAAUGUCAUGUACAACUUGGCUUAGAUAGUGUUUUUGGGGGGGAUUUUUGUUUUGGUGUUUAUUUUUACACAAGGAAAGUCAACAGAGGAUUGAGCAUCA	1.03
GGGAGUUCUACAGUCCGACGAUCAAUGUUCAUAUUUUGAGUAAAGGAAGCUAAAACCAUGUUUGCUUUCUGGUACUACAUGCAUUAGCGAAAGGUUAAGUAAGUUUUGUUCUCCACUGAAGUAAUACUUAACAUCUCAGAAAACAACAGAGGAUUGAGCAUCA	0.186
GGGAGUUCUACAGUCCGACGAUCUCUUGAAACCUAAACUCUGUGCUUGUAGAAGACUGUAACCUUUUUGUCUUUUUUUUUUUUUUUUUAAACAAACAAAAAAACCAACCUCCAGCUCCAGUGGCUGUGACUGGCCCCAGUGAUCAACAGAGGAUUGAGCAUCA	0.58
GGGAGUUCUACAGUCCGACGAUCAAAACGCCAAUUCGCAACAGAGCCUUUUACAUGGAAGAAGGGGCCCCCUACUGCGAGCGAGACUAUGAGAAGAUGUUUGGCACAAAAUGUCGAGGCUGUGACUUCAAGAUUGAUGCUGGACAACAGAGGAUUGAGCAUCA	0.13
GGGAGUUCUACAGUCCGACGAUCAACAGGAUCAGUUAAUUAUUCCAUUUAUACCUACUGUAGGCUUUUUAUUCAACAGUUAUCUGUAGCUUAAGUACAUGAUAGGCAAAAACAAAGAGAAAAGAAAUGUUUUUGUAGUAGUGGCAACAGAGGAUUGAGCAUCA	2.45
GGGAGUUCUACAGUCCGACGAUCGUUCUUAAAUAUGCAGGACUGAAAAAAGAAGACAUUGCCAUGUGGGAAGUAAAUGAAGCAUUCAGUGUGGUUGUGCUAGCCAACAUUAAAAUGCUGGAGAUUGACCCCCAAAAAGUAAAUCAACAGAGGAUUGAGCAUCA	0.225
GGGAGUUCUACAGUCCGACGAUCAUCAGAGACCAUGUAGUUCAACUUUCCACUCAAAGUAAGAUUUAUGAAUUAUUUAAAUGAUAGUUGUUACUUGGAACAGCCACUUGAGAGGCUCUCUUGGUAUUGUUUGGAAUUGUUUUACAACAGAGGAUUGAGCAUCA	1.15
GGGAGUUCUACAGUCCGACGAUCUUGCGCCAGAGAACAGAAAACAUAGAUAUAAAAAAAUACUGUGUACAUUAUCUUGAGGAUGUAGGUUCUUUUGAAUACACUCGUAAUACCCUUAAAGAGCUUGAAGCUAAAGCCUAUAAACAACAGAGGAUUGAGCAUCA	1.31
